Experimental data gathered from unrelated publications.
A part holds a random share of what one study measured.

Sample 1
Target: Centromere-binding protein 1, full length, N-terminal tag (CBF1, Saccharomyces cerevisiae, UniProt P17106, residues 1-351)
Chain of UniProt P17106 (whole entry, looked up): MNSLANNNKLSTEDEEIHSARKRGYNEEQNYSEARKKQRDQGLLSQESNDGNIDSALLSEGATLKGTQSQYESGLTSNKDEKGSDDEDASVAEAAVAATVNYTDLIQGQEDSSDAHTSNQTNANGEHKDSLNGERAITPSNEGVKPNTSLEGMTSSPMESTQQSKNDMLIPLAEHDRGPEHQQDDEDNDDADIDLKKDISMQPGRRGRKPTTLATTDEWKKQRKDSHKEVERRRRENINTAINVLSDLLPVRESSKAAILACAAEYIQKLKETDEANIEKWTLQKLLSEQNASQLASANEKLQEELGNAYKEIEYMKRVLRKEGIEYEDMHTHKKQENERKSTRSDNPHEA
Method: protein-binding microarray
Form: double-stranded DNA, one strand shown
Sample: in vitro
Tested at: 0.8 µM
Notes: whole 60-bp probe, no competitor
Reading: higher = stronger binding
Measurement: fluorescence intensity
All sequences stand within: … GTCTTGATTCGCTTGACGCTGCTG
CTATGGAAACCTTATCATATGAGGTTTGCAAATTTC: 500 a.u.
CTAAATCATATTTCGCACGTTACCCGACTGCTTTTC: 702 a.u.
GAACCTGAATGGAAAAACGTGCCCCCATATATGTAG: 865 a.u.
CTAGGTTACAAAATTTACATCATGAGTTTACGGTTC: 581 a.u.
CCTAACTACTATACTGGTGAAATATAGCTTCGTACA: 538 a.u.
CTAAAATAACATACACACGTGTAAGAATATATATTC: 4750 a.u.
CTACAAAAATGTTAACATGTGACATTCACGTCATTC: 3730 a.u.
CTAAAAGGTGGCAATCACGACTGAAAAGGGTACTTC: 544 a.u.
CTAACCTCAAAGGACCACGTTAAGTGGCCATATTTC: 509 a.u.
GAATACTGGTCAGAGCACGATTGATGGTGCCATTAG: 530 a.u.
TGTACGAAGCTATAGAACGTGGATATAGTAGTTAGG: 556 a.u.
CTAGTAACGCCGGCTGACGTGGACGATTTATCATTC: 541 a.u.
CTATTTGATGAAAATCACGATAGTTAATTTTTCTTC: 567 a.u.
CTAAAGGTGTCAAATATCATGATGAATGAGGTCTTC: 515 a.u.
CTATTCCTAGGGTGTCATGTGTCTGGCCCAATTTTC: 1080 a.u.
TGTACGAAGCTATGTGATTTTGATATAGTAGTTAGG: 510 a.u.
CTATCTCCCCCCTTCCTCGTGCTGCGCGACTGTTTC: 575 a.u.
TGTACGAAGCTATGTCACGTCTTTATAGTAGTTAGG: 728 a.u.
TGTACGAAGCTATTCCACGAGGATATAGTAGTTAGG: 550 a.u.

Sample 2
Target: RING finger protein unkempt homolog, zinc fingers 1-6, SBP tag (UNK, Homo sapiens, UniProt Q9C0B0, residues 30-357)
Chain of UniProt Q9C0B0 (30-357, looked up): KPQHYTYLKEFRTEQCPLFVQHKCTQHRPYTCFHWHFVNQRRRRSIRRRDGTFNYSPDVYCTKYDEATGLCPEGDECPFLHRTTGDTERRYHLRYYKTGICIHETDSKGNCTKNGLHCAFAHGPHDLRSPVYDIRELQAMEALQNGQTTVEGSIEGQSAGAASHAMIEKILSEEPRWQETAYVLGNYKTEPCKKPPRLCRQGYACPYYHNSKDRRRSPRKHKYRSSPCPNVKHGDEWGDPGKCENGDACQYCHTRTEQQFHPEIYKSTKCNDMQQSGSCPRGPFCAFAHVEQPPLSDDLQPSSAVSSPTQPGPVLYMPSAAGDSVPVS
Method: RNA Bind-n-Seq
Form: RNA
Sample: in vitro
Tested at: 100 nM
Notes: RNA with constant flanks, vertebrate orthologous sites, ends assumed
Baseline: input RNA pool
Reading: higher = stronger binding
Measurement: bound/input enrichment
All sequences stand within: GGGAGUUCUACAGUCCGACGAUC … CAACAGAGGAUUGAGCAUCA
GUGUUUGUCUUGCACAUGGCAGUGUUUAUAUUGAGGAUCUUCUGAGGAGGAAGGGGUGCCUAGUGGUGGUGCCUGGGUUCCUGGCCUCUAGCGCCCCACCCGCCUCAGCACCCUGCCUGG: 0.405 ratio
GUUUUAAAGUCAUUUUUUCACAUUUCCUGUAAAUAAUGGAUAAUCAUUUCUUUUAUUUUUAAGUACUGUUUUAACAAUGUGGAUGACCAUAAAUGUACUUGCUGAAUUCAUUCUUUUUUA: 0.295 ratio
AACCUCCUGAACUGCUCAAUUUCAAGCUGUGGCUGUUUUAGAUACUGGUUUUGUUUUCUUUACCAUUCUUCCCUGUUUUCCACCUUCUCUACCCCUCUUCCCAAGGUUUGACUCAUGGAU: 0.93 ratio
AAUUGAACAAAAACGUUUCCACUGGGUUUUGCCUGUAAGAAAAAAAUGUACCCGAGCACAUAGAGCUUUUUAAUAGCACUAACCAAUGCCUUUUUAGAUGUAUUUUUGAUGUAUAUAUCU: 0.725 ratio
AUUACUGUUAAGCACUGUGUUCCAGACCGUGUCUGACUUAGUGUAACCUAGGAGAUUUUCUAGUUUUAUUUUAACGAAACCCUGAUUGGCGCACAGCAGUGAGGAGAACAGCGUCUUUUA: 1.09 ratio
GGUUAAUGUGUUAUUUAUUGAGUAUUGUUUGUGCUAAGCAUUGUGUUAGAUUUAAAAAAUUAGUGGAUUGACUCCACUUUGUUGUGUUGUUUUCAUUGUUGAAAAUAAAUAUAACUUUGU: 0.931 ratio
CAAUUCAAUGGUUGAGGGUUCAGAACUGAAAAAGGUUCGCUCCAACUCUAGGAUUUACCAUAGGUAUUUUUUACUAGACGCUGACAUGCAAAGCCUGAGGUGGGAGCCGUCCAAGAAGGA: 0.6 ratio
UGUGAGUAGUGGAGACUGGCCUGCAACAAGGAGCAAGUCAAGAAAUGUCCAGUAAAACUGCUGUCCUCUGCACUAUCGUUAACCUGCUGUCUCACUUUUCAUGUAGAUGUAAAAUACUGA: 0.292 ratio
UCCUCAACUUCUUCUAGCUUGUGAUCCUUCAAAGCUGGGUCGGACAUUAGUGCUAGAUACUAGAAAUUUUCAUUUCCCUGUUGCCAGUGAUCAGAGAGACAGACAUUAAAACAGGAAUAU: 1.2 ratio
UAAUCACUUGUUUAAAGUUACGUAGAUAAGAAAUUAUAGCUGUUGAUCCUUGUUUUCCAAAAUGGCCUAUACUAUUUUUUUAUCCAUCUUGCAAAGAUCAGUUGUGUGUUAUUUCUUCAC: 0.443 ratio
CAGCCAACUCCCUUAUCGGCCGGGCUGCUCACAUCGCCGUCCUCGACUCUGAGAUCUUCCUGGAGAAGUUCUUCCUUGUUGCGGGCCUCAAGUUCUUUCAGUAGAACUGCGACAGAUUCA: 0.477 ratio

Sample 3
Target: RNA binding protein fox-1 homolog 2, RRM domain, GST-SBP tag (RBFOX2, Homo sapiens, UniProt O43251-10, residues 100-194)
Method: RNA Bind-n-Seq
Form: RNA
Sample: in vitro
Tested at: 365 nM
Notes: natural RNA segment, single round, ends assumed
Baseline: no-protein control
Reading: higher = stronger binding
Measurement: RBNS enrichment (R)
All sequences stand within: GGGAGUUCUACAGUCCGACGAUC … UGGAAUUCUCGGGUGCCAA
Target sequence (chain): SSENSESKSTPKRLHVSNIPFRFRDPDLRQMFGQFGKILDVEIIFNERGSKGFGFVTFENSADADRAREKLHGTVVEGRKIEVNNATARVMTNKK
UCUUGCAAGAAAUUCCUAAUUCUUCUGCUGACUUGGAGCUCGCUGCCACAGACAGCACAGCCCUUGCCCAGAAGCAGCUGAACAAUUCCUAACCCAUUUCAUCUCGGUUC: 0.247
UUGUUUUGGAGGAACCCUGGUGGUUUGACAGCCAGGAGAAAGGCCAUAUGUGAAACCAGUCUCUUGUGGAGAUUGGAAAUCCUCCCUGAUAUUUGGGCAGAGCCUAAACG: 0.428
UGACUAGACCUGUUUUUAAGGAAGCGCUGUCUGUUUUUAAGUAUUCUUAAAAACGUUUUGGAAAGCACUUCAGAUUUUACUGUUUACCAUGAGCCAUGGGUUUUUGUUUU: 0.393
UUCCCCUCGGAAACUGCUUCUGCUGGAGGAUAUGUGUUGGAAUAAUUACGUCUUGAGUCUGGGAUUAUCCGCAUUGUAUUUAGUGCUUUGUAAUAAAAUAUGUUUUGUAG: 1.18
AGAUGGGCCCCAGGCUCCUCCAUAUGGCCCAGGGCUUACCACCCUAUCACACGUGGCCUUGUCUAGACCCAGUCCUGAGCAGGGGAGAGGCUCUUGAGACCUGAUGCCCU: 0.239
CCAUGCAUUAUAUACCCUGGUGCAAUCACACGACUGUCAUCUAAAGUCCUGGCCCUGGCCCUUACUAUUAGGAAAAUAAACAGACAAAAACAAGUAAAUAUAUAUGGUCA: 0.454
UCUCUUCCUGAUGGUGCAGAACCCAGAAUUAGAAGUUUGUGGUUACAGCAUACUCUGUCCUUCAGAAAGGCGUGAUUCUAGCUGUUGACCCCUUGCAGCUGUUGGAAUCU: 0.838
UUUCGGGGGUUCUUUGGGGUUUGUUUGUUUGCUUCUUUUCCAGAGUGUGGAAAGUCUACAGUGCAGAAAGGCUUGAACCUGCCAGCUGAUUUGAAAUACUUUCCCCUGCG: 2.53
AAUGAAAGCAGGCAAAAGUGCUGUCAUUGUGAUACCGUCCCACUCAGAUGUCUAACGGGAGCUUGCUUAAGGGGAAUGUUAGCAUUGCCAAGUGCGAUGGUGUUGCCUUU: 0.255
AUGUGGGUGUUAGAAAAAUUACCAUAUAGCUUAAUAUGUUUAUUAGUUCUCUUUGGAAAAAAACUACCACUGUGGUCUUAAAAGGGAACAAAAUAUACCAUAGGCUAAAA: 0.479
CAUCCCCGGGAGUGCUCGUGGGAAGUGGCCUCCACAGAAGGUAGUCAUCUUCAUCCUCUAGGACAUUUAAAACAUGCUCAGUCCCUGGACCCAGAUGAUGGCUUCUCAGG: 0.298
GUUGUUUCUUUACUAGCAGAAAUCAGUCUGCAGGGAGGGGUAGUGCGUGUAUCUCACUGUUUUCCGUAUUGGGAACAGAUGGUAUAGAUUUGCCAAGGCCUUUAUUUUAA: 0.554

Sample 4
Target: Histone acetyltransferase KAT6A, winged helix 1, GST fusion (KAT6A, Homo sapiens, UniProt Q92794, residues 1-85)
Method: protein binding microarray
Form: double-stranded DNA, one strand shown
Sample: in vitro
Tested at: not given
Notes: 8-mer, flanks averaged, mean of 2 arrays, mostly near background
Baseline: not given
Reading: higher = stronger binding
Measurement: E-score
Target sequence (chain): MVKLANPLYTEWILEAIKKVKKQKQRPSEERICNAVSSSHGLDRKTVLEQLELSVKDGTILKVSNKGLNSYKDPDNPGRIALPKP
TGGGGACA: -0.28
TCACGTAA: -0.0182
GGTAGGCA: -0.102
ACCTTCCG: 0.199
AATCTGAA: -0.203
AGAGGCAC: -0.08
AACTGCAC: -0.174
AGACGCAG: -0.114
AGGGGTAA: -0.273
CTCAGGGC: -0.0481
CCTAATAG: 0.00683
CAATGGTC: -0.133
CATTGCAC: -0.211
ACCCGAGT: 0.151
GCGGCTTA: 0.332
AAGATTGA: -0.0738

For quick reference, copied from above (sample 3):
UCUCUUCCUGAUGGUGCAGAACCCAGAAUUAGAAGUUUGUGGUUACAGCAUACUCUGUCCUUCAGAAAGGCGUGAUUCUAGCUGUUGACCCCUUGCAGCUGUUGGAAUCU: 0.838
UUUCGGGGGUUCUUUGGGGUUUGUUUGUUUGCUUCUUUUCCAGAGUGUGGAAAGUCUACAGUGCAGAAAGGCUUGAACCUGCCAGCUGAUUUGAAAUACUUUCCCCUGCG: 2.53
AAUGAAAGCAGGCAAAAGUGCUGUCAUUGUGAUACCGUCCCACUCAGAUGUCUAACGGGAGCUUGCUUAAGGGGAAUGUUAGCAUUGCCAAGUGCGAUGGUGUUGCCUUU: 0.255
AUGUGGGUGUUAGAAAAAUUACCAUAUAGCUUAAUAUGUUUAUUAGUUCUCUUUGGAAAAAAACUACCACUGUGGUCUUAAAAGGGAACAAAAUAUACCAUAGGCUAAAA: 0.479
CAUCCCCGGGAGUGCUCGUGGGAAGUGGCCUCCACAGAAGGUAGUCAUCUUCAUCCUCUAGGACAUUUAAAACAUGCUCAGUCCCUGGACCCAGAUGAUGGCUUCUCAGG: 0.298
GUUGUUUCUUUACUAGCAGAAAUCAGUCUGCAGGGAGGGGUAGUGCGUGUAUCUCACUGUUUUCCGUAUUGGGAACAGAUGGUAUAGAUUUGCCAAGGCCUUUAUUUUAA: 0.554
